{"data": "Assay results gathered from unrelated publications", "note": "A part holds a random share of what one study measured."}
{"data": "Series 1", "target": "Prothrombin, mature alpha-thrombin (F2, Homo sapiens, UniProt P00734)", "technique": "aptamer microarray, sandwich", "molecule type": "DNA with 2'F-ANA", "matrix": "in vitro", "concentration": "200 nM", "setting": "whole 15-mer aptamer, many near background", "added": "Cy3 exosite-II aptamer, 400 nM", "reading": "higher = stronger binding", "oligonucleotide": "GGTTGGTGTGGTTGG"}
{"Modification": "2'F-ANA at 2 4 5 7 9 10 12 13 15", "mean fluorescence intensity [a.u.]": 51.7}
{"Modification": "2'F-ANA at 1 2 4 10 12 15", "mean fluorescence intensity [a.u.]": 57.6}
{"Modification": "2'F-ANA at 1 3 4 7 10 11 14", "mean fluorescence intensity [a.u.]": 91.2}
{"Modification": "2'F-ANA at 4 5 6 8 9 10 11", "mean fluorescence intensity [a.u.]": 47.9}
{"Modification": "2'F-ANA at 1 2 3 5 8 10 11 12", "mean fluorescence intensity [a.u.]": 135}
{"Modification": "2'F-ANA at 1 3 4 6 14", "mean fluorescence intensity [a.u.]": 78.7}
{"Modification": "2'F-ANA at 3 6 10 15", "mean fluorescence intensity [a.u.]": 534}
{"Modification": "2'F-ANA at 1 2 4 11 13 14 15", "mean fluorescence intensity [a.u.]": 51.7}
{"Modification": "2'F-ANA at 2 4 7 9 12 14", "mean fluorescence intensity [a.u.]": 144}
{"Modification": "2'F-ANA at 2 5 6 7 8 11 13", "mean fluorescence intensity [a.u.]": 54.4}
{"Modification": "2'F-ANA at 1 2 3 6 7 9 10 12 15", "mean fluorescence intensity [a.u.]": 86.4}
{"Modification": "2'F-ANA at 2 3 4 7 9 11 12 15", "mean fluorescence intensity [a.u.]": 638}
{"Modification": "2'F-ANA at 1 4 5 7 8 9 11 12 13", "mean fluorescence intensity [a.u.]": 65.5}
{"Modification": "2'F-ANA at 1 3 4 5 6 8 9 10 12 15", "mean fluorescence intensity [a.u.]": 48.7}
{"Modification": "2'F-ANA at 1 4 5 6 7 10 12 13 14", "mean fluorescence intensity [a.u.]": 45.1}
{"Modification": "2'F-ANA at 2 4 6 7 8 9 11 14 15", "mean fluorescence intensity [a.u.]": 98.9}
{"Modification": "2'F-ANA at 2 3 4 5 6 7 8 9 11 14 15", "mean fluorescence intensity [a.u.]": 82.6}
{"Modification": "2'F-ANA at 1 2 5 6 7 9 14 15", "mean fluorescence intensity [a.u.]": 43.1}
{"Modification": "2'F-ANA at 4 5 6 8 11 13 14 15", "mean fluorescence intensity [a.u.]": 42.3}
{"Modification": "2'F-ANA at 3 4 6 7 9 10 11 12 13 14", "mean fluorescence intensity [a.u.]": 166}
{"Modification": "2'F-ANA at 1 4 5 6 8 9 12 15", "mean fluorescence intensity [a.u.]": 105}
{"Modification": "2'F-ANA at 1 2 5 6 7 8 10 11 12 13 14 15", "mean fluorescence intensity [a.u.]": 53.6}
{"data": "Series 2", "target": "RING finger protein unkempt homolog, zinc fingers 1-6, GST-SBP tag (UNK, Homo sapiens, UniProt Q9C0B0, residues 30-357)", "technique": "RNA Bind-n-Seq", "molecule type": "RNA", "matrix": "in vitro", "concentration": "not given", "setting": "RNA with constant flanks, human-mouse chimeric sites, ends assumed", "reference": "input RNA pool", "reading": "higher = stronger binding", "shared flanks, not repeated": "GGGAGUUCUACAGUCCGACGAUC … CAACAGAGGAUUGAGCAUCA", "sequence of UniProt Q9C0B0 (30-357, looked up)": "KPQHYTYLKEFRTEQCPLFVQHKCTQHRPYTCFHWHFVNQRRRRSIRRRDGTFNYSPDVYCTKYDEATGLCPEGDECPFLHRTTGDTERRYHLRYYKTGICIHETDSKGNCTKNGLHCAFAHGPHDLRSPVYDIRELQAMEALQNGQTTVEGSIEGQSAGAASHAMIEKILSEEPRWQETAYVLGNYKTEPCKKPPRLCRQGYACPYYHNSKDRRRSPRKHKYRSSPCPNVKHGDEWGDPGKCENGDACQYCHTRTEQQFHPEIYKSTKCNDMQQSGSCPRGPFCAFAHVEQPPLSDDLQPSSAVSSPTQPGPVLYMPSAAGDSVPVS"}
{"Oligonucleotide": "GCUCCUCCCCGCUCUGCAGCCUGGGGACACUGGGCUGGGACCAGAAUCCAGCUUUCUUUUAAAACUCUCAGUGUAACUGUAUCCCGUUUUUUUCUUUUUUUUUUAAAUAGUGUAUUUUUU", "bound/input enrichment": "15.4 ratio"}
{"Oligonucleotide": "CUGGCCUGGCCCUCCCCUCUAGUGACCUUUCGUAUAGUCACUGCUUCUGCUACGGAUACUUUCAGCUGCAACUCCCUACUGGGUGGGGCACCCAUUUCAGGCAGAAGGUUUUGGUACCCU", "bound/input enrichment": "0.253 ratio"}
{"Oligonucleotide": "ACCAUUUCUGAAUACACGGCUUUGUGUUGUAUUUACUUACGGUAUUAAAUUAUUAUUCUGCUUAGCUUAUAAUAAGGAUAAUUGCAUUUAAAGAGGUUACUGAAUGUUACUCUGAAACUU", "bound/input enrichment": "0.334 ratio"}
{"Oligonucleotide": "ACACAAUAUGAGACCAACAGCAUGGACUUCAAAGUUGGGGCAGAUGGGACAGUCUUCGCCACCCGGGAGUUGAAGAUCCCCUCAGAGCAGGUGGCGUUCACGGUGACUGCAUGGGACAGC", "bound/input enrichment": "0.265 ratio"}
{"Oligonucleotide": "UCUUUAAAUGCACUACAACAGGAAAAUACAGUGCUUUCCCUCCCAUAGAUCCACGUUCAAGCUCAAAGAGCAAAGGCUUUGCACGGAGCUCAAACAUCUGAUGAAGAAAGAUUUCUGAGA", "bound/input enrichment": "0.419 ratio"}
{"Oligonucleotide": "AAAGAGUGGAUAGAGUGUGCACACGGGAUCGGUGGGACUCGGGCAGAGAAAGAGUGCAAGAUAGAGUUCGAUGACUUCGAAGAGUGCUUGCUUCGGUACAAAACGAUGAGGCGAAUGCAU", "bound/input enrichment": "0.463 ratio"}
{"Oligonucleotide": "AACAGAUUUCUCAAGCACAUUCCAAGCGAGAAUGCUGGGGUGAUCAUUGUUGCCCAUGUGCCUUCUGACUGAGCUUUAAUGCUGUUCCAUGUUACAUUGAUGUUCUUCUCCAGAAUUGUU", "bound/input enrichment": "0.117 ratio"}
{"Oligonucleotide": "GAUCAUGAACCACCAUCAGAAAUGAAGAUGAGAUUACCCAGACGAGCCCAAAACCGCGCGCUACAGAAAAGUAAACUUAACCUUGCAGAGUUCCUUAAUGAAGAUACAAGUUAAGAGAGC", "bound/input enrichment": "0.204 ratio"}
{"Oligonucleotide": "UCCCUGUUGCUGAAUAAAUGGCUUGUAAAGAAGUUUUUCCAAGCUGUACCCAUGUACGUUAUUAUAGUUGCUGCAAAAUGUUCUUCCUGAUAUUGAUUUUAUUUGUUAACUGAAGGUCUC", "bound/input enrichment": "0.444 ratio"}
{"Oligonucleotide": "GGAAGCACAAUGAUGGAGAUUGAUGGUGACAAAGGCAAGCAGGGCGGGCCCACCUACUACAUAGAUACCAAUGCCCUCCGCGUGCCCAGGGAGAACAUGGAGGCCAUCUCACCACUCAAG", "bound/input enrichment": "0.288 ratio"}
{"Oligonucleotide": "GCCACCAGAUCCCAGAAACAUGACCCUUGCUGCCUACAAAGAGAAGAUGAAGGAGCUCCCACUAGUGUCCUUGUUCUGCUCCUGCUUCUUGUCUGAUCCCCUGAAUAAGUCGUCCUACAA", "bound/input enrichment": "0.587 ratio"}
{"data": "Series 3", "target": "Histone acetyltransferase KAT6A, winged helix 2, GST fusion (KAT6A, Homo sapiens, UniProt Q92794, residues 85-181)", "technique": "protein binding microarray", "molecule type": "double-stranded DNA, one strand shown", "matrix": "in vitro", "concentration": "not given", "setting": "8-mer, flanks averaged, mean of 2 arrays, mostly near background", "reference": "not given", "reading": "higher = stronger binding", "Residues (chain)": "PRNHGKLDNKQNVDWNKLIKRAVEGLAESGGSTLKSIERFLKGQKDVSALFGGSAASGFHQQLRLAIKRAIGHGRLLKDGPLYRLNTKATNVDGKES"}
{"Oligonucleotide": "AACCTCCC", "E-score": -0.0532}
{"Oligonucleotide": "CCGTCTTC", "E-score": 0.0222}
{"Oligonucleotide": "CACTGGAG", "E-score": -0.0687}
{"Oligonucleotide": "CGTTATGC", "E-score": -0.122}
{"Oligonucleotide": "AAGTAAGC", "E-score": -0.0358}
{"Oligonucleotide": "AAGCCTCT", "E-score": -0.101}
{"Oligonucleotide": "CGCGAAGA", "E-score": 0.12}
{"Oligonucleotide": "GTGCCGCA", "E-score": 0.104}
{"Oligonucleotide": "AAGTATAC", "E-score": 0.0753}
{"Oligonucleotide": "AGGATTCG", "E-score": -0.0797}
{"Oligonucleotide": "GTCGAGAC", "E-score": -0.098}
{"Oligonucleotide": "GCGATAGA", "E-score": 0.0575}
{"Oligonucleotide": "GTTCTTTA", "E-score": 0.0196}
{"Oligonucleotide": "ACTTTAAA", "E-score": 0.0192}
{"Oligonucleotide": "CTTTGCCA", "E-score": 0.0641}
{"Oligonucleotide": "AATGAGGG", "E-score": -0.169}
{"Oligonucleotide": "ACTTGCTC", "E-score": -0.126}
{"Oligonucleotide": "AAACGTTC", "E-score": -0.13}
{"Oligonucleotide": "CCGACCCC", "E-score": -0.109}
{"Oligonucleotide": "GGATACCA", "E-score": -0.0114}
{"Oligonucleotide": "GGGCGCTA", "E-score": 0.062}
{"Oligonucleotide": "AACGGTAT", "E-score": -0.064}
{"Oligonucleotide": "CAGGTGCC", "E-score": -0.0941}
{"Oligonucleotide": "GAATTGCC", "E-score": -0.0376}
{"Oligonucleotide": "ATCAAACC", "E-score": -0.0576}
{"data": "Series 4", "target": "Interferon regulatory factor 7, full length, phosphomimetic (IRF7, Homo sapiens, UniProt Q92985, residues 1-503, S101K/S471D/S472D/S475D/S476D/S477D/S483D/S484D/S487D)", "technique": "protein-binding microarray", "molecule type": "double-stranded DNA, one strand shown", "matrix": "in vitro", "concentration": "250 nM", "setting": "60-bp whole probe", "added": "salmon DNA 0.4 mg/ml", "reference": "random background probes", "reading": "higher = stronger binding", "shared flanks, not repeated": "GCCTAGCAC … GTCTTGATTCGCTTGACGCTGCTG", "sequence of UniProt Q92985 (whole entry, unmodified, looked up)": "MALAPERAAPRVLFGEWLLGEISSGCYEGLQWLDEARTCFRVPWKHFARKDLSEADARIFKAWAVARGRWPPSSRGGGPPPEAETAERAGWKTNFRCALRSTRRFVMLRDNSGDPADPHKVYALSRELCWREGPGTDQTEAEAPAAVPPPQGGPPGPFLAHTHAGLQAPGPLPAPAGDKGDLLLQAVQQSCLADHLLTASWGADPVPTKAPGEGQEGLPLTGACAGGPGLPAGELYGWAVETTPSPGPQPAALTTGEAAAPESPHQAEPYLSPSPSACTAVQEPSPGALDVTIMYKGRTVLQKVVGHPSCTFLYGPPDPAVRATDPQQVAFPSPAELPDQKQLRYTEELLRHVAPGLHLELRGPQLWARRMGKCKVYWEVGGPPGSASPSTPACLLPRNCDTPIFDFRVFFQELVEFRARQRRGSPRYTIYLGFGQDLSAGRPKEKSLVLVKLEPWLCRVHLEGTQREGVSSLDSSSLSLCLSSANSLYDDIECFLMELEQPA"}
{"Oligonucleotide": "TTAGATTTCGGAACTGGATTAGTGCTA", "log fluorescence": "1.19 z-score"}
{"Oligonucleotide": "TGAGGTTTCGGGTATCGGTTAGTGCTA", "log fluorescence": "7.03 z-score"}
{"Oligonucleotide": "TCACTCACTCACAGACTCACGTGCTAG", "log fluorescence": "0.193 z-score"}
{"Oligonucleotide": "TTAGATATCGGTTTTCGATTAGTGCTA", "log fluorescence": "3.42 z-score"}
{"Oligonucleotide": "GACGGTTTCGACACTGGGCACGTGCTA", "log fluorescence": "3.68 z-score"}
{"Oligonucleotide": "GACGGTTTCTACTTTCGGGACGTGCTA", "log fluorescence": "5.38 z-score"}
{"Oligonucleotide": "AACGGACTGGGGTATCGGGACGTGCTA", "log fluorescence": "-0.493 z-score"}
{"Oligonucleotide": "GACGGTTTCGGGACTGGGGAAGTGCTA", "log fluorescence": "4.48 z-score"}
{"Oligonucleotide": "TTAGATATCAGACCGGATTAGTGCTAG", "log fluorescence": "0.313 z-score"}
{"Oligonucleotide": "TCACTTCTGTATTCATGACTGTGCTAG", "log fluorescence": "0.804 z-score"}
{"Oligonucleotide": "GACGGTATCGACTATCGGGACGTGCTA", "log fluorescence": "-0.044 z-score"}
{"Oligonucleotide": "TCACATTTTGGTTTTCCACTGTGCTAG", "log fluorescence": "1.11 z-score"}
{"Oligonucleotide": "GACGATGTCGGGTTTCGAGACGTGCTA", "log fluorescence": "1.84 z-score"}
{"Oligonucleotide": "TCAAACTTGTGTTTGTCACTGTGCTAG", "log fluorescence": "-0.489 z-score"}
{"Oligonucleotide": "TCATATTAAATTTTCACACTGTGCTAG", "log fluorescence": "0.919 z-score"}
{"Oligonucleotide": "GGTCTTCTGGGCTGTTTGGTCGTGCTA", "log fluorescence": "-0.903 z-score"}
{"Oligonucleotide": "TTAGGTTTGGACTATCGGTTAGTGCTA", "log fluorescence": "0.072 z-score"}
{"Oligonucleotide": "GACGGTATCCTGTTCCTGACGTGCTAG", "log fluorescence": "0.103 z-score"}
{"Oligonucleotide": "TTAGGGTTCGACACTGGGTTAGTGCTA", "log fluorescence": "-0.283 z-score"}
{"Oligonucleotide": "GACGGTTTCCTTAACCTGACGTGCTAG", "log fluorescence": "0.982 z-score"}
{"Oligonucleotide": "TCAATTTTCGGGTAGATGACTGTGCTA", "log fluorescence": "1.26 z-score"}
{"Oligonucleotide": "TTAGGTCTCGGACTGGTTTAGTGCTAG", "log fluorescence": "0.62 z-score"}
{"Oligonucleotide": "GAGGGTATCGGGTTTCGGGACGTGCTA", "log fluorescence": "2.72 z-score"}
{"Oligonucleotide": "TTAGGTCTCATACTGCTTTAGTGCTAG", "log fluorescence": "0.352 z-score"}
{"Oligonucleotide": "TCAATATTCATTTTATTACTGTGCTAG", "log fluorescence": "1.34 z-score"}
{"note": "Excerpt of the above (series 3):"}
{"Oligonucleotide": "GCGATAGA", "E-score": 0.0575}
{"Oligonucleotide": "GTTCTTTA", "E-score": 0.0196}
{"Oligonucleotide": "ACTTTAAA", "E-score": 0.0192}
{"Oligonucleotide": "CTTTGCCA", "E-score": 0.0641}
{"Oligonucleotide": "AATGAGGG", "E-score": -0.169}
{"Oligonucleotide": "ACTTGCTC", "E-score": -0.126}
{"Oligonucleotide": "AAACGTTC", "E-score": -0.13}
{"Oligonucleotide": "CCGACCCC", "E-score": -0.109}
{"Oligonucleotide": "GGATACCA", "E-score": -0.0114}
{"Oligonucleotide": "GGGCGCTA", "E-score": 0.062}
{"Oligonucleotide": "AACGGTAT", "E-score": -0.064}
{"Oligonucleotide": "CAGGTGCC", "E-score": -0.0941}
{"Oligonucleotide": "GAATTGCC", "E-score": -0.0376}
